Assay results pooled from the literature.
A part holds a random share of what one study measured. Changes are numbered by the printed parent chain.

Series 1
Target: Histone acetyltransferase KAT6A, winged helix 2, GST fusion (KAT6A, Homo sapiens, UniProt Q92794, residues 85-181)
Technique: protein binding microarray
Molecule type: double-stranded DNA, one strand shown
Sample: in vitro
Tested at: not given
Notes: 8-mer, flanks averaged, mean of 2 arrays, mostly near background
Relative to: not given
Reading: higher = stronger binding
Construct (chain): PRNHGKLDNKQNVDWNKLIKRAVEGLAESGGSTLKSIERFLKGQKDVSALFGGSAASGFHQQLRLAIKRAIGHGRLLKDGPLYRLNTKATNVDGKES
| Oligonucleotide | E-score |
| --- | --- |
| CGGCCCGC | 0.198 |
| GCAACTGC | 0.23 |
| ATTGAAAG | 0.122 |
| CTTGGATA | -0.158 |
| TTACCGAA | -0.137 |
| CTTTCATA | 0.0066 |
| AATGGTTG | -0.0182 |
| CGATACAA | 0.0184 |
| ACGTCAAG | -0.143 |
| ACTGTCAT | -0.179 |
| CCCTCATC | -0.186 |
| CCTGTTAC | -0.147 |
| GTTAACGA | -0.077 |
| AATGCCCT | -0.0733 |
| AGGCCATC | -0.0525 |
| ACGGAATA | 0.0846 |
| TCCCGCGA | 0.11 |
| ATGAGCTA | 0.0156 |
| AGTAGAGG | -0.229 |
| GCTAATAA | -0.0676 |
| GCTGTTTA | -0.00038 |
| ACTGGACC | 0.0479 |
| CCCGGGAC | 0.178 |
| TCACCAAA | 0.0662 |

Series 2
Target: RING finger protein unkempt homolog, zinc fingers 1-6, GST-SBP tag (UNK, Homo sapiens, UniProt Q9C0B0, residues 30-357)
Technique: RNA Bind-n-Seq
Molecule type: RNA
Sample: in vitro
Tested at: not given
Notes: RNA with constant flanks, human and mouse sites, ends assumed
Relative to: input RNA pool
Reading: higher = stronger binding
Residues (chain): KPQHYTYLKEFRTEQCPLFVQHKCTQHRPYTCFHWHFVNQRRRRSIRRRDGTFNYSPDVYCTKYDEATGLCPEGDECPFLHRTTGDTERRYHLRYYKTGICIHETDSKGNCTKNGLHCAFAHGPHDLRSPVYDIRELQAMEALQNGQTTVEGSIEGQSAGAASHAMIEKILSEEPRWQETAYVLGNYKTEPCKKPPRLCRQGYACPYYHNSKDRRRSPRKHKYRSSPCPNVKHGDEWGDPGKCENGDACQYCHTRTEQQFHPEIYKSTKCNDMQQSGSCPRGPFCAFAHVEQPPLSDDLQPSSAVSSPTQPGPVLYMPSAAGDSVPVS
| Oligonucleotide | bound/input enrichment |
| --- | --- |
| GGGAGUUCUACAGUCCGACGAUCAAUCAAGUUCUAUUCCAGACUAACGGUGGGCCUGGGCUUUAUAUUUUUAUGUAAACUAUUUUUAGACUGGAGGAUUUGGUUUUCAGAGGAAAGCUUUACGCAUAAUUAAACCAUGGGAGUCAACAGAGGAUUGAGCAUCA | 1.43 ratio |
| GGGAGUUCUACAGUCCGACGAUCUCUUGUUCAUCCAGCCUGAGUGCUCUGAGCCUCGAUGAGCCAUUUAUACAGAAAGAUGUGGAAUUAAGAAUAAUGCCUCCAGUUCAGGAAAAUGACAAUGGGAAUGAAACAGAAUCAGAGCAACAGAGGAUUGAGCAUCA | 0.0958 ratio |
| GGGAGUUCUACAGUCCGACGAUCCGUGACCUCAAACCCAAUGGGGCCAACAUCUUGGUAACAGAGGAGAAUAAGAAGGAGUAUGUACACCUGGUAUGCCAGAUGAGAAUGACAGGAGCCAUCCGCAAGCAGUUGGCGGCUUUCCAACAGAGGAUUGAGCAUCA | 0.121 ratio |
| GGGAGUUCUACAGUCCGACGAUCUCCCGCCUACAGAAAGAUUUUGAGAGACAUUUUAAGGACCUCAGGUUCAUUAAAAAGGACUUAGAACUUUUCUCAAAUCCAUUUAGCUUUAAACCGGAAUAUGCGCCUAUUUCUGUAAGACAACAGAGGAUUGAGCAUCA | 3.01 ratio |
| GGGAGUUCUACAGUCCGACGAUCAAAAGACGACGAACUGGAGGCUCUCUGAGAGGGAAUGCUUCCUCAAGCCAGGUUGAUGAGGGACAGAUGAAUCGCGUGGUUGAGGAGGAUCCACAGCAGCAAGCGAGACAUCAAGAGGAGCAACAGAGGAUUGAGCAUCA | 0.131 ratio |
| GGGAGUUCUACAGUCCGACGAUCCGGAGUCGGGAGGCUGAGUGUUCAUUCCAGCAUGUCGGAAGGGGAGUCCCAAACAGUAGUCAGCAGUGGCUCAGACCCAAAGGUAGAAUCCUCAUCUUUAGCUCCUGGCCUGACUUCUGUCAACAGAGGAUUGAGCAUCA | 0.163 ratio |
| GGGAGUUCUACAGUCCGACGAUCUACAUUGGUGUAAAAUCAGCCUAUGUCAGUUAUGAUGUUCAGAAGCGUACAAUUUAUUUAAAUAUCACAAACACACUAAAUAUAACAAACAAUAACUAUUACUCUGUCGAAGUUGAAAACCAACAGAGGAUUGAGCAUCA | 0.789 ratio |
| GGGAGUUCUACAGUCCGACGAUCGGUCCUGGCCCCUUACAAGAGAGAUCUCUCUUUGAGAAAAAGAGGGGCGCUCCUCCAAGUAGCAAUAUUGAAGACUUCCAUGGACUCUUACCGAAGGGUUAUCCCCAUCUGUGCUCUAUACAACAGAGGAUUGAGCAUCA | 0.485 ratio |
| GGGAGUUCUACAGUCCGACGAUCUCGUGGGCCCCUGAGGACGCCUGGAUGGGCACUCACCCUAAGUAUCUAGAAAUGAUGGAAUUAGAUAUAGGAGAUGCCACCCAAGUUUAUGUAGCGUUCUUGGUUUACCUGGACCUCAUGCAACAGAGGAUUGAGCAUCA | 2.67 ratio |
| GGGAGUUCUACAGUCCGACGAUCAUUUACCUUAACUCUAAAGCUACAGUAUUUUUAAGAAAUAGUAUUUUACCCUAGCAGUUAAUAAAAAUGCUUGUUAGCUUUGAGAAGUUAUUUCUAUUAGAUAUAUAUUUCUUUUAUUAGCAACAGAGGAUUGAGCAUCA | 141 ratio |
| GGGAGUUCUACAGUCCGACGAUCAUACAAGUGACUACGAAAGACAUCCUAGUUACAGAGAAAGGAAAUACUGUGUUAGAAUUUUUAGUAGGACUCUUUAAACCUUUUGUGGAAAGCUAUCAGAUAAUUUGCAAGUACCUUUUGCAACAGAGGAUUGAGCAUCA | 1.92 ratio |

Series 3
Target: PABPC1L2, full length, GST fusion (mouse, UniProt A0ABA7IW68)
Technique: RNAcompete
Molecule type: RNA
Sample: in vitro
Tested at: 20 nM
Notes: 7-mer, probes averaged, single round
Relative to: mean of 7-mers
Reading: higher = stronger binding
Construct (chain): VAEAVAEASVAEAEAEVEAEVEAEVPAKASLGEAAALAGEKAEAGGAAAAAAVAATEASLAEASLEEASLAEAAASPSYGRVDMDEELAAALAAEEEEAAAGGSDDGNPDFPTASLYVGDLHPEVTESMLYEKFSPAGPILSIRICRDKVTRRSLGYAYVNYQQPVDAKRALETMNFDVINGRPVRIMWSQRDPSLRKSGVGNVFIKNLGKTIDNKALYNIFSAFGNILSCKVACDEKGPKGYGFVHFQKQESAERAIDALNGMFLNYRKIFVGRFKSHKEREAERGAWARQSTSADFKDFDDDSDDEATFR
| Oligonucleotide | 7-mer Z-score |
| --- | --- |
| ACACGUU | -0.275 |
| AUCGGGG | 0.425 |
| UUUCCAG | -0.378 |
| ACCCCUG | -0.289 |
| UACAACA | 0.303 |
| AUGGGCC | 0.0895 |
| GACGGUU | -0.282 |
| CCCGGCC | -0.443 |
| AAAUGUU | 0.568 |
| UUGCAUA | -0.168 |
| AUCACAG | -0.199 |
| GACCUGG | -0.121 |
| UCUUGAU | -0.353 |
| GCGGAUA | 0.157 |
| UCGCCCG | -0.373 |
| UAAUUCA | -0.144 |
| UCAAGCG | -0.00289 |
| UGUUGUU | -0.436 |
| AUUGAUG | -0.175 |
| UAUGGCC | -0.17 |
| AGGAACG | 0.151 |
| GUGAAGG | 0.153 |
| AUUAACA | 0.0497 |

Series 4
Target: CCNB3, cyclin fold, Cln2 fusion (human)
Technique: yeast growth competition, sequencing
Sample: yeast
Notes: weak parent motif
Relative to: not given
Reading: higher = stronger binding
Starting sequence: USP37 docking peptide (human); PSAKRSLGFLPQP
| Substitution | normalised enrichment score |
| --- | --- |
| F9A | -0.18 |
| S6A | 0.328 |
| P13A | 0.179 |
| L10A | 0.0455 |
| R5A | 0.225 |
| G8A | 0.0911 |

Series 5
Target: ABI1, truncated, D143A, DHFR fusion (Arabidopsis thaliana)
Technique: DHFR PCA, deep sequencing
Sample: yeast
Notes: methotrexate growth selection, single substitutions
With: (+)-ABA 2500 µM
Relative to: wild-type fitted maximum
Reading: higher = stronger binding
Starting sequence: PYL1, truncated, DHFR fusion (Arabidopsis thaliana); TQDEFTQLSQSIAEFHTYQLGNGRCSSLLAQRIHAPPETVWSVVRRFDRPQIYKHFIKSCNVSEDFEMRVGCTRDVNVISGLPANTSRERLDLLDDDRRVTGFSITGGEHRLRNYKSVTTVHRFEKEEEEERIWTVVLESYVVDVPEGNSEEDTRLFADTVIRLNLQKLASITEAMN
| Substitution | relative binding score |
| --- | --- |
| H55K | 98.2% |
| R24T | 100% |
| L156W | 93% |
| H122W | 35.4% |
| V70M | 88.2% |
| G102D | -8.33% |
| I52Y | 93.8% |
| P37C | 93.7% |
| E130H | 107% |
| V118N | 94.8% |
| A35L | 64.6% |
| T39F | 91.7% |
| G71N | 94.5% |
| Y115P | -2.05% |
| A35G | 90.8% |
| V70N | 76.2% |
| E147C | 91.6% |
| P146F | 65.2% |
| D75E | 97% |
| F66C | 99.4% |
| L112V | 82.2% |
| T120E | 66.9% |
| I105Y | 14.2% |
| K116Q | 106% |
| A30L | 99.4% |
